{"data": "Measured values of several laboratories", "note": "Each line is one published result; not all experiments were run side by side. “And” joins repeats or separate records; there may be more than shown. Numbers after ± are the reported error."}
{"Molecule": "COC1CN([C@H]2CC[C@H]([C@@]3(C)Oc4c(Cl)cc(C(=O)NCc5c(SC)cc(C)[nH]c5=O)c(C)c4O3)CC2)C1", "test": "RNA-seq, measured: SLC25A27 mouse homolog", "test system": "mouse, HT-1376 xenograft, whole blood", "conditions": "dose not given", "scale": "reference: vehicle", "quantity": "log2 fold change", "result": 0.0877}
{"Molecule": "C=C1CC[C@H](OCCCNC(=O)CCOCCOCCOCCOCCOCCOCCOCCOCCOCCOCCOCCOCCOCCOCCOCCOCCOCCOCCOCCOCCOCCOCCOCCOCCOCCOCCOCCOCCOCCOCCOCCOCCOCCOCCOCCOCCNC(=O)CCN2C(=O)CC(SC[C@H](NC(=O)[C@H](Cc3ccccc3)NC(=O)[C@H](CC(N)=O)NC(=O)[C@H](Cc3c[nH]cn3)NC(=O)[C@@H](NC(=O)[C@H](CC(=O)O)NC(=O)[C@H](CCC(N)=O)NC(=O)[C@H](CC(C)C)NC(=O)[C@H](CCCCN)NC(=O)[C@H](CCCCN)NC(=O)[C@H](CCCNC(=N)N)NC(=O)[C@H](CC(C)C)NC(=O)[C@H](Cc3c[nH]c4ccccc34)NC(=O)[C@H](CCC(=O)O)NC(=O)[C@@H](NC(=O)[C@H](CCCNC(=N)N)NC(=O)[C@H](CCC(=O)O)NC(=O)[C@H](CCSC)NC(=O)[C@H](CO)NC(=O)[C@H](CC(N)=O)NC(=O)[C@H](CC(C)C)NC(=O)[C@H](Cc3c[nH]cn3)NC(=O)[C@H](CCCCN)NC(=O)CNC(=O)[C@H](CC(C)C)NC(=O)[C@H](CC(N)=O)NC(=O)[C@H](Cc3c[nH]cn3)NC(=O)[C@H](CCSC)NC(=O)[C@H](CC(C)C)NC(=O)[C@H](CCC(N)=O)NC(=O)[C@@H](NC(=O)[C@H](CCC(=O)O)NC(=O)[C@H](CO)NC(=O)[C@@H](NC(=O)[C@@H](N)CO)C(C)C)[C@@H](C)CC)C(C)C)C(C)C)C(=O)O)C2=O)C/C1=C/C=C1\\CCC[C@]2(C)[C@@H]([C@H](C)CCCC(C)(C)O)CC[C@@H]12 (stereo partly drawn)", "test system": "male cynomolgus monkey, plasma", "conditions": "intravenous, 0.02 mg/kg, single dose", "quantity": "Cmax", "result": "789 ng/mL"}
{"Molecule": "CCCC[C@H](NC(=O)COCCOCCNC(=O)CN1CCN(CC(=O)O)CCN(CC(=O)O)CC1)C(=O)N[C@H]1CC(=O)NCCCC[C@@H](C(N)=O)NC(=O)[C@H](Cc2c[nH]c3ccccc23)NC(=O)[C@H](CCCNC(=N)N)NC(=O)[C@@H](Cc2ccccc2)NC(=O)[C@H](Cc2c[nH]cn2)NC1=O [technetium-99m labelled]", "test system": "C57 mouse, tumor", "conditions": "intravenous, 0.037 MBq, 0.5 h", "quantity": "tissue uptake", "result": "13.6 ± 1.13 %ID/g"}
{"Molecule": "C=C(NC(=O)c1csc(-c2nc3c(cc2O)-c2nc(cs2)C(=O)NC(C(C)O)C(=O)NC(=C(C)OC)c2nc(cs2)C(=O)NC2c4nc(cs4)C(=O)NC(COC(=O)c4c5c6c(cccc6n4O)COC(=O)C(OC4CC(C)(O)C(N(C)C)C(C)O4)C2OC5)c2nc-3cs2)n1)C(N)=O (stereo not drawn)", "test system": "male cynomolgus monkey, plasma", "conditions": "intravenous, 9 mg/kg, single dose, infusion", "quantity": "half-life", "result": "5.59 h"}
{"Molecule": "CC[C@H](C)[C@H](NC(=O)[C@H](CS)NC(=O)[C@H](CCCCN)NC(=O)[C@H](Cc1ccc(O)cc1)NC(=O)[C@H](CC(C)C)NC(=O)[C@H](CCC(=O)O)NC(=O)CNC(=O)[C@H](C)NC(=O)[C@H](CCCCN)NC(=O)[C@H](CC(C)C)NC(=O)[C@H](C)NC(=O)[C@H](C)NC(=O)[C@H](CC(N)=O)NC(=O)[C@H](C)NC(=O)[C@H](CCCNC(=N)N)NC(=O)[C@H](CCCNC(=N)N)NC(=O)CCOCCOCCOCCOCCNC(=O)CC[N+]1=C(C=CC=CC=CC=C2N(CCC(=O)O)c3ccc4ccccc4c3C2(C)C)C(C)(C)c2c1ccc1ccccc21)C(=O)N[C@@H](CC(C)C)C(=O)N[C@@H](Cc1ccc(O)cc1)C(N)=O", "test": "NIR fluorescence imaging", "test system": "C57BL/6 mouse K/BxN serum-transfer arthritis, whole body", "conditions": "injection, dose not given, after injection", "quantity": "duration of fluorescence increase", "result": "2 h"}
{"Molecule": "CC(C)C[C@H](NC(=O)[C@@H](CCCCNC(=O)CCCCCCCCCCNC(=O)CN1CCN(CC(=O)O)CCN(CC(=O)O)CCN(CC(=O)O)CC1)NC(=O)[C@H](Cc1ccc(O)cc1)NC(=O)[C@H](CO)NC(=O)[C@H](Cc1c[nH]c2ccccc12)NC(=O)[C@H](Cc1cnc[nH]1)NC(=O)[C@@H]1CCC(=O)N1)C(=O)N[C@@H](CCCN=C(N)N)C(=O)N1CCC[C@H]1C(=O)NCC(N)=O [indium-111 labelled]", "test system": "athymic nude mouse, female, whole blood", "conditions": "intravenous, 0.037 MBq, 1 h", "quantity": "tissue uptake", "result": "3.14 ± 0.77 %ID/g"}
{"Molecule": "CC(C)C[C@H](NC(=O)[C@@H](CCCCNC(=O)[C@@H](Cc1ccccc1)NC(=O)CCCCCNC(=O)CN1CCN(CC(=O)O)CCN(CC(=O)O)CCN(CC(=O)O)CC1)NC(=O)[C@H](Cc1ccc(O)cc1)NC(=O)[C@H](CO)NC(=O)[C@H](Cc1c[nH]c2ccccc12)NC(=O)[C@H](Cc1c[nH]cn1)NC(=O)[C@@H]1CCC(=O)N1)C(=O)N[C@@H](CCCNC(=N)N)C(=O)N1CCC[C@H]1C(=O)NCC(N)=O [indium-111 labelled]", "test system": "athymic nude mouse, female, intestines", "conditions": "intravenous, 0.037 MBq, 0.5 h", "quantity": "tissue uptake", "result": "2.81 ± 1.42 %ID"}
{"Molecule": "CC(C)C[C@H](NC(=O)[C@H](Cc1ccc(O)cc1)NC(=O)[C@@H](CCCNC(=N)N)NC(=O)[C@@H](CO)NC(=O)[C@H](Cc1ccccc1)NC(=O)[C@H](CC1CCCCC1)NC(=O)[C@H](CC(=O)O)NC(=O)CN1CCN(CC(=O)O)CCN(CC(=O)O)CCN(CC(=O)O)CC1)C(=O)N[C@@H](Cc1c[nH]c2ccccc12)C(=O)N[C@@H](CO)C(=O)O [copper-64 labelled]", "test system": "human, adrenal", "conditions": "concentration not given, 1 h", "quantity": "activity concentration", "result": "3960 Bq/mL and 1690 Bq/mL and 3890 Bq/mL and 1800 Bq/mL and 2560 Bq/mL and 2950 Bq/mL"}
{"Molecule": "Cc1ncsc1-c1ccc(C(C)NC(=O)C2CC(O)CN2C(=O)C(NC(=O)CCCCCCCCCCN2CCCC(Nc3ncc(Cl)c(Nc4ccccc4S(=O)(=O)C(C)C)n3)C2)C(C)(C)C)cc1 (stereo not drawn)", "target or system": "22Rv1", "test": "RNA-seq, measured: ZNF446 mRNA", "conditions": "concentration not given", "scale": "reference: DMSO", "quantity": "log2 fold change", "result": -1.47}
{"Molecule": "C[C@@H](O)[C@@H]1NC(=O)[C@H](CCCCN)NC(=O)[C@@H](Cc2c[nH]c3ccccc23)NC(=O)[C@H](Cc2ccc(O)cc2)NC(=O)[C@@H](NC(=O)[C@@H](Cc2ccccc2)NC(=O)CN2CCN(CC(=O)O)CCN(CC(=O)O)CCN(CC(=O)O)CC2)CSSC[C@@H](C(=O)N[C@H](CO)[C@@H](C)O)NC1=O [gallium-67 labelled]", "test system": "male ICR mouse, intestine", "conditions": "intravenous, 11 kBq, 3 h, radiolabelled", "quantity": "tissue uptake", "result": "4.47 ± 0.54 %ID"}
{"Molecule": "human nucleophosmin", "test": "far-UV CD, CDSSTR", "test system": "Tris buffer, NaCl", "conditions": "pH 7.5, room temperature", "quantity": "beta-strand content", "result": "37%"}
{"Molecule": "C=CC(=O)Nc1cccc(Cn2ncc3cnc(Nc4cnn(CCOC)c4)nc32)c1", "target or system": "TLK1 human", "test": "binding, KINOMEscan", "conditions": "100 nM", "scale": "lower = stronger binding", "quantity": "percent of control", "result": "100%"}
{"note": "For quick reference, copied from above:"}
{"Molecule": "C=C(NC(=O)c1csc(-c2nc3c(cc2O)-c2nc(cs2)C(=O)NC(C(C)O)C(=O)NC(=C(C)OC)c2nc(cs2)C(=O)NC2c4nc(cs4)C(=O)NC(COC(=O)c4c5c6c(cccc6n4O)COC(=O)C(OC4CC(C)(O)C(N(C)C)C(C)O4)C2OC5)c2nc-3cs2)n1)C(N)=O (stereo not drawn)", "test system": "male cynomolgus monkey, plasma", "conditions": "intravenous, 9 mg/kg, single dose, infusion", "quantity": "half-life", "result": "5.59 h"}
